Measurements gathered from unrelated publications.
Lines come from different studies, so protocols differ. ± marks the error that the study gave.

SMILES = CSCC[C@H](NC(=O)[C@@H](NC(=O)[C@H](CC(C)C)NC(=O)[C@@H](NC(=O)[C@H](Cc1c[nH]cn1)NC(=O)CCCCCNC(=O)[C@H](CCCNC(=N)N)NC(=O)[C@H](CCCNC(=N)N)NC(=O)[C@H](CCCNC(=N)N)NC(=O)[C@H](CCC(N)=O)NC(=O)[C@H](CCCNC(=N)N)NC(=O)[C@H](CCCNC(=N)N)NC(=O)[C@H](CCCCN)NC(=O)[C@H](CCCCN)NC(=O)[C@H](CCCNC(=N)N)NC(=O)CNC(=O)[C@@H](N)Cc1ccc(O)cc1)C(C)C)C(C)C)C(=O)N[C@@H](CS)C(=O)N[C@@H](C)C(=O)N[C@H](C(N)=O)[C@@H](C)O; system = C57BL/6J mice; setting = Alzet osmotic pump, 3 mg/kg, 8 weeks; scale = reference: leukocytes; measurement = Baso; value = 0%
SMILES = CC[C@H](C)[C@H](NC(=O)[C@H](CCCCN)NC(=O)CNC(=O)[C@H](CC(C)C)NC(=O)[C@H](Cc1ccccc1)NC(=O)[C@H](CCCCN)NC(=O)[C@H](CO)NC(=O)[C@H](Cc1ccccc1)NC(=O)[C@H](Cc1c[nH]c2ccccc12)NC(=O)[C@H](CCC(N)=O)NC(=O)[C@@H](NC(=O)[C@H](Cc1ccccc1)NC(=O)CCCCCNC(=O)CN1CCN(CC(=O)O)CCN(CC(=O)O)CCN(CC(=O)O)CC1)C(C)C)C(=O)N[C@@H](CCC(=O)O)C(=O)N1CCC[C@H]1C(=O)N[C@@H](CC(=O)O)C(=O)N[C@H](C(=O)N[C@@H](CO)C(=O)N[C@@H](CCC(N)=O)C(=O)N[C@H](C(=O)N[C@@H](CCC(N)=O)C(=O)N[C@@H](CC(=O)O)C(=O)N1CCC[C@H]1C(=O)N[C@@H](CC(N)=O)C(=O)N[C@@H](CC(=O)O)C(=O)N[C@@H](CCC(N)=O)C(=O)N[C@@H](Cc1ccc(O)cc1)C(=O)N[C@@H](CCC(=O)O)C(=O)N1CCC[C@H]1C(=O)N[C@@H](Cc1ccccc1)C(=O)O)C(C)C)C(C)C [copper-64 labelled]; system = C57BL/6 mice, stomach; setting = with: LPS 3 mg/kg intratracheal; measurement = tissue uptake; value = 2.53 ± 0.2 %ID/g
SMILES = CN[C@H](CC(C)C)C(=O)N[C@H]1C(=O)N[C@@H](CC(N)=O)C(=O)N[C@H]2C(=O)N[C@H]3C(=O)N[C@H](C(=O)N[C@H](C(=O)O)c4cc(O)cc(O)c4-c4cc3ccc4O)[C@H](O)c3ccc(c(Cl)c3)Oc3cc2cc(c3O[C@@H]2O[C@H](CO)[C@@H](O)[C@H](O)[C@H]2O[C@H]2C[C@](C)(NCc3ccc(-c4ccc(Cl)cc4)cc3)[C@H](O)[C@H](C)O2)Oc2ccc(cc2Cl)[C@H]1O; system = mouse, plasma; setting = intravenous, 75 mg/kg; measurement = half-life; value = 6.6 h
SMILES = C[C@H](O)[C@@H](NC(=O)[C@H]1CCCN1C(=O)[C@@H](CCCCN)NC(=O)[C@@H](CO)NC(=O)[C@@H](Cc1ccc(O)cc1)NC(=O)[C@@H](CC(N)=O)NC(=O)CCOCCOCCOCCNC(=O)CN1CCN(CC(=O)O)CCN(CC(=O)O)CCN(CC(=O)O)CC1)C(=O)N[C@H](CC(=O)O)C(=O)N[C@H](CCCNC(=N)N)C(=O)N[C@H](CCC(N)=O)C(=O)N[C@H](Cc1ccc(O)cc1)C(=O)N[C@H](Cc1c[nH]cn1)C(=O)N[C@H](Cc1ccccc1)C(N)=O [copper-64 labelled]; system = C57BL/6J mice, spleen; setting = intravenous, 1.85 MBq, 0.6667 h, radiolabelled; measurement = tissue uptake; value = 1.27 ± 1.32 %ID/g
SMILES = COc1ccc(CNc2ccc3c(c2)S(=O)(=O)C=C3)cc1; system = male C57BL/6 mice, blood; setting = intraperitoneal, 10 mg/kg, day 8, group average; measurement = platelet distribution width; value = 14.7%
SMILES = CCN(Cc1ccccc1)C(=O)CCc1nc(CN2CCN(C(=O)Cc3ccc(OC)c(OC)c3)CC2)no1; assay = rotarod test; system = mouse, CCI neuropathic pain model; setting = 5 mg/kg; measurement = time to first slip; value = 0.8 ± 0.11 min
SMILES = CSCC[C@H](N)C(=O)N[C@@H](C)C(=O)N[C@@H](Cc1c[nH]c2ccccc12)C(=O)N[C@@H](Cc1c[nH]cn1)C(=O)N[C@@H](CC(=O)O)C(=O)N[C@@H](CC(=O)O)C(=O)N[C@@H](CCC(=O)O)C(=O)N[C@@H](CCC(=O)O)C(=O)N[C@@H](Cc1ccccc1)C(=O)N[C@@H](C)C(=O)N[C@@H](CCCNC(=N)N)C(=O)N[C@@H](CCCNC(=N)N)C(=O)N[C@@H](CCCNC(=N)N)C(=O)N[C@@H](CCCNC(=N)N)C(=O)NCCCCCC(=O)NCCCCC(NC(=O)CCCCCNC(=O)[C@H](CCCNC(=N)N)NC(=O)[C@H](CCCNC(=N)N)NC(=O)[C@H](CCCNC(=N)N)NC(=O)[C@H](CCCNC(=N)N)NC(=O)[C@H](C)NC(=O)[C@H](Cc1ccccc1)NC(=O)[C@H](CCC(=O)O)NC(=O)[C@H](CCC(=O)O)NC(=O)[C@H](CC(=O)O)NC(=O)[C@H](CC(=O)O)NC(=O)[C@H](Cc1c[nH]cn1)NC(=O)[C@H](Cc1c[nH]c2ccccc12)NC(=O)[C@H](C)NC(=O)[C@@H](N)CCSC)C(=O)NCCCCC(NC(=O)C(CCCCNC(=O)CCCCCNC(=O)[C@H](CCCNC(=N)N)NC(=O)[C@H](CCCNC(=N)N)NC(=O)[C@H](CCCNC(=N)N)NC(=O)[C@H](CCCNC(=N)N)NC(=O)[C@H](C)NC(=O)[C@H](Cc1ccccc1)NC(=O)[C@H](CCC(=O)O)NC(=O)[C@H](CCC(=O)O)NC(=O)[C@H](CC(=O)O)NC(=O)[C@H](CC(=O)O)NC(=O)[C@H](Cc1c[nH]cn1)NC(=O)[C@H](Cc1c[nH]c2ccccc12)NC(=O)[C@H](C)NC(=O)[C@@H](N)CCSC)NC(=O)CCCCCNC(=O)[C@H](CCCNC(=N)N)NC(=O)[C@H](CCCNC(=N)N)NC(=O)[C@H](CCCNC(=N)N)NC(=O)[C@H](CCCNC(=N)N)NC(=O)[C@H](C)NC(=O)[C@H](Cc1ccccc1)NC(=O)[C@H](CCC(=O)O)NC(=O)[C@H](CCC(=O)O)NC(=O)[C@H](CC(=O)O)NC(=O)[C@H](CC(=O)O)NC(=O)[C@H](Cc1c[nH]cn1)NC(=O)[C@H](Cc1c[nH]c2ccccc12)NC(=O)[C@H](C)NC(=O)[C@@H](N)CCSC)C(N)=O (stereo partly drawn); system = C57BL/6 mouse female, pancreas; setting = dose not given, 6 h; scale = reference: total; measurement = mean tissue distribution; value = 0.78%
SMILES = C=CC(=O)Nc1cccc(Cn2ncc3cnc(Nc4cnn(CCOC)c4)nc32)c1; system = male Sprague-Dawley rat; setting = oral, 180 mg/kg/day, day 28, 28-day subacute toxicity; measurement = serum TG; value = 0.99 ± 0.65 mM
SMILES = CC[C@H](C)[C@H](NC(=O)[C@H](CCCNC(=N)N)NC(=O)[C@H](CCCCN)NC(=O)[C@H](Cc1ccc(O)cc1)NC(=O)[C@H](CC(=O)O)NC(=O)[C@H](C)NC(=O)CNC(=O)CCOCCOCCOCCNC(=O)CN1CCN(CC(=O)O)CCN(CC(=O)O)CCN(CC(=O)O)CC1)C(=O)N[C@H](C(=O)N[C@H](C(=O)N[C@@H](CCCCN)C(=O)N[C@H](C(=O)N[C@@H](CC(N)=O)C(N)=O)C(C)C)C(C)C)[C@@H](C)O [copper-64 labelled]; assay = ex vivo gamma counting; system = C57BL/6J male mice, B16-F10 tumour, muscle; setting = intravenous, 1.85 MBq, 40 min; measurement = tissue uptake; value = 0.301 ± 0.013 %ID/g
SMILES = CC(C)C[C@H](NC(=O)CNC(=O)[C@H](CCC(N)=O)NC(=O)[C@H](CC(C)C)NC(=O)[C@H](CC(C)C)NC(=O)[C@H](CCCNC(=N)N)NC(=O)[C@H](CCC(N)=O)NC(=O)[C@H](CC(C)C)NC(=O)[C@H](CCCNC(=N)N)NC(=O)[C@H](C)NC(=O)CNC(=O)[C@H](CCC(=O)O)NC(=O)[C@H](CCCNC(=N)N)NC(=O)[C@H](CC(C)C)NC(=O)[C@H](CCCNC(=N)N)NC(=O)[C@H](CO)NC(=O)[C@H](CC(C)C)NC(=O)[C@H](CCC(=O)O)NC(=O)[C@H](CO)NC(=O)[C@@H](NC(=O)[C@H](Cc1ccccc1)NC(=O)[C@@H](NC(=O)CNC(=O)[C@H](CC(=O)O)NC(=O)C(C)(C)NC(=O)[C@@H](N)Cc1c[nH]cn1)[C@@H](C)O)[C@@H](C)O)C(=O)N[C@@H](CC(C)C)C(=O)N[C@@H](CCC(N)=O)C(=O)NCC(=O)N[C@@H](CC(C)C)C(=O)N[C@H](C(=O)NCC(=O)N[C@@H](CCCCNC(=O)COCCOCCNC(=O)COCCOCCNC(=O)CC[C@H](NC(=O)CCCCCCCCCCCCCCCCC(=O)O)C(=O)O)C(N)=O)C(C)C; system = DIO C57BL/6J mice; setting = sc, 300 nmol/kg twice daily, 8 days; scale = reference: vehicle; measurement = plasma lipase; value = no effect
SMILES = N#[11C]c1ccc(-c2csc(NN=C3CCCC3)n2)cc1; system = C57BL/6 mouse, male; setting = intravenous, 3 MBq, 5 min; measurement = uptake in adrenal gland; value = 21.6 ± 1.96 %ID/g
SMILES = O=C1NC2(CC2)COc2ncc(F)cc2[C@H]2COCCN2c2ccn3ncc1c3n2; system = Sprague-Dawley rat, female, adrenals; setting = oral, 20 mg/kg/day, 4 weeks, end of treatment; measurement = organ-to-body weight ratio; value = 0.024 ± 0.004%

Excerpt of the above:
SMILES = C=CC(=O)Nc1cccc(Cn2ncc3cnc(Nc4cnn(CCOC)c4)nc32)c1; system = male Sprague-Dawley rat; setting = oral, 180 mg/kg/day, day 28, 28-day subacute toxicity; measurement = serum TG; value = 0.99 ± 0.65 mM
